Assay results collected from several papers.
Every numbered part comes from another study and shows a few of its results, in no order.
Chain of UniProt P78368 (whole entry, looked up): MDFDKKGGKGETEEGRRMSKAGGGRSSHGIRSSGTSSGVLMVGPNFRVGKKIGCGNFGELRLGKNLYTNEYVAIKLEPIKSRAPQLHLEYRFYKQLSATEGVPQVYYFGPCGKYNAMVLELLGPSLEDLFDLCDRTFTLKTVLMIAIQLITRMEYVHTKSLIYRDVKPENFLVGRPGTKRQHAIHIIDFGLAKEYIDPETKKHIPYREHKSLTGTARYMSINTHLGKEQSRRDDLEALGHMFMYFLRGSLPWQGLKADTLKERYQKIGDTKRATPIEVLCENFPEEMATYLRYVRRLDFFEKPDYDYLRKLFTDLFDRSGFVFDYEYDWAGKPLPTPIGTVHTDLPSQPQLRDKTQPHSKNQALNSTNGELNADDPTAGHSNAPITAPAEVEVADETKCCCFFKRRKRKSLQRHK
Chain of UniProt Q9UHD2 (whole entry, looked up): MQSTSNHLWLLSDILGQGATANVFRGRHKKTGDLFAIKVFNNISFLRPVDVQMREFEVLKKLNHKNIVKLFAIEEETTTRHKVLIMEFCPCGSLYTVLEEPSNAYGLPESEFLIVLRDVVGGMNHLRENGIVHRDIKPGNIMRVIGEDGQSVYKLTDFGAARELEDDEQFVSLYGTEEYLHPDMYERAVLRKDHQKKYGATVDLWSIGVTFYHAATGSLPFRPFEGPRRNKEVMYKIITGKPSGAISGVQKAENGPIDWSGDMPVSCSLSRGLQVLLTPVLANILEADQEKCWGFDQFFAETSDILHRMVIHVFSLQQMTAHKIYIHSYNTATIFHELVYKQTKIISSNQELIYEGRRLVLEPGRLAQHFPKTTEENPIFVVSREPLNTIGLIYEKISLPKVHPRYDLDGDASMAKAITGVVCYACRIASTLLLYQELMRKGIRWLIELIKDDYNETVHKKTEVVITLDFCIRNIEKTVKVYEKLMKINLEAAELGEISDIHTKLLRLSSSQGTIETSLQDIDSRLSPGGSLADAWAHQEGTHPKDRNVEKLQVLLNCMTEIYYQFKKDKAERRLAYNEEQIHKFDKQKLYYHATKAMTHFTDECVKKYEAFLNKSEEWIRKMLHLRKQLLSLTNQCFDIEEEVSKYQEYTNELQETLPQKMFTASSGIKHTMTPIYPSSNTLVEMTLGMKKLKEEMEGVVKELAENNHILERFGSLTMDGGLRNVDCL
Chain of UniProt P42685 (whole entry, looked up): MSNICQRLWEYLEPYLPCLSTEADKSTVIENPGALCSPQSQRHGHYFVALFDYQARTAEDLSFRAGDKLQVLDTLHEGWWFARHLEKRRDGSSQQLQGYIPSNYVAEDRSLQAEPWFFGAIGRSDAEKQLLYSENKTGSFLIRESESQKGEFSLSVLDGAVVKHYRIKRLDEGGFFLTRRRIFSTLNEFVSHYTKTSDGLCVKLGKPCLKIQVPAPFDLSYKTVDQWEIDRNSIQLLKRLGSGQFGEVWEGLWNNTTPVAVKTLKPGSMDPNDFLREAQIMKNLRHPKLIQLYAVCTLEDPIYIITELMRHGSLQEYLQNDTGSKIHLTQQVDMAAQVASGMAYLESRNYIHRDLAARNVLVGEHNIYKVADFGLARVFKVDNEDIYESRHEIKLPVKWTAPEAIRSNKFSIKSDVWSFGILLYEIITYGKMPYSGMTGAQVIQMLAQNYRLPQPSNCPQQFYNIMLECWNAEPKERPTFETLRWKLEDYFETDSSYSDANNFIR
Chain of UniProt Q8WTQ7 (whole entry, looked up): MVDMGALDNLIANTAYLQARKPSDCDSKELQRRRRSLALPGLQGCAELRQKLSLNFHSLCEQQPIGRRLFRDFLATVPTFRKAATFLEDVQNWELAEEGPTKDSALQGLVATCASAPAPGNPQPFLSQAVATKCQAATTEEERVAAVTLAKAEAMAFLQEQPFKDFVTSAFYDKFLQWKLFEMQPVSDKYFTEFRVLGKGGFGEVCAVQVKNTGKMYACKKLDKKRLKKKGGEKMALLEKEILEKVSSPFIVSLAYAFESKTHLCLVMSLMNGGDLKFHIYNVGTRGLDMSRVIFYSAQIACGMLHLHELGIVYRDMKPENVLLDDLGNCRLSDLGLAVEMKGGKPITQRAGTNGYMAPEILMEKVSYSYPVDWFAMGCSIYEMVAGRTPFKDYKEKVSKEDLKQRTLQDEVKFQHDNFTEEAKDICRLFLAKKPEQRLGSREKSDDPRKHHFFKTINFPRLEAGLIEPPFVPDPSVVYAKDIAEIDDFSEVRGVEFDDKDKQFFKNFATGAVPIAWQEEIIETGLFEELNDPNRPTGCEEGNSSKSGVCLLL
Chain of UniProt P10721 (whole entry, unmodified, looked up): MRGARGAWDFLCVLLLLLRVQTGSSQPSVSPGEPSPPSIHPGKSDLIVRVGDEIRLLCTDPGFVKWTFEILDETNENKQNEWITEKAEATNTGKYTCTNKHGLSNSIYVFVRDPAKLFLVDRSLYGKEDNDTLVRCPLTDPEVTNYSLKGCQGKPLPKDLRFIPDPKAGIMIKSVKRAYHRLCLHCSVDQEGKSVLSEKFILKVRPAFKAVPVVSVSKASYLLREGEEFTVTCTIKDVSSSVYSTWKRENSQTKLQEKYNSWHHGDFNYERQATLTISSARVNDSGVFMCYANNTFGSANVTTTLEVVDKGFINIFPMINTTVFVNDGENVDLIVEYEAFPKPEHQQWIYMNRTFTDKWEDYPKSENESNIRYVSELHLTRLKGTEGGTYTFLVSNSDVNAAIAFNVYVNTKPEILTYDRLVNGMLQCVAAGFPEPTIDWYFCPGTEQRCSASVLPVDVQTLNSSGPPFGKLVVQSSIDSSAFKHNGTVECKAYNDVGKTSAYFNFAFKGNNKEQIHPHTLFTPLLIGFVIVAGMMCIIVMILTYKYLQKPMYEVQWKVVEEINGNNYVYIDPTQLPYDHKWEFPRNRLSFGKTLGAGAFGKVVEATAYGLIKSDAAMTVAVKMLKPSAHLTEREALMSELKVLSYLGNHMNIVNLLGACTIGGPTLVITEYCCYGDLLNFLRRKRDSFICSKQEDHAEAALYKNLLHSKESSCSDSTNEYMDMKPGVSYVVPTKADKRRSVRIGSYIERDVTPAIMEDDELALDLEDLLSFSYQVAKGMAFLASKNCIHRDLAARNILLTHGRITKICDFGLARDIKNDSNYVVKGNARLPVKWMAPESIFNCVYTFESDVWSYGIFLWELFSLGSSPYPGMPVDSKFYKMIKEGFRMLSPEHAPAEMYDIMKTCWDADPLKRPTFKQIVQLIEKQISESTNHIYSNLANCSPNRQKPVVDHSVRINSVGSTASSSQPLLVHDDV
Chain of UniProt Q12866 (whole entry, looked up): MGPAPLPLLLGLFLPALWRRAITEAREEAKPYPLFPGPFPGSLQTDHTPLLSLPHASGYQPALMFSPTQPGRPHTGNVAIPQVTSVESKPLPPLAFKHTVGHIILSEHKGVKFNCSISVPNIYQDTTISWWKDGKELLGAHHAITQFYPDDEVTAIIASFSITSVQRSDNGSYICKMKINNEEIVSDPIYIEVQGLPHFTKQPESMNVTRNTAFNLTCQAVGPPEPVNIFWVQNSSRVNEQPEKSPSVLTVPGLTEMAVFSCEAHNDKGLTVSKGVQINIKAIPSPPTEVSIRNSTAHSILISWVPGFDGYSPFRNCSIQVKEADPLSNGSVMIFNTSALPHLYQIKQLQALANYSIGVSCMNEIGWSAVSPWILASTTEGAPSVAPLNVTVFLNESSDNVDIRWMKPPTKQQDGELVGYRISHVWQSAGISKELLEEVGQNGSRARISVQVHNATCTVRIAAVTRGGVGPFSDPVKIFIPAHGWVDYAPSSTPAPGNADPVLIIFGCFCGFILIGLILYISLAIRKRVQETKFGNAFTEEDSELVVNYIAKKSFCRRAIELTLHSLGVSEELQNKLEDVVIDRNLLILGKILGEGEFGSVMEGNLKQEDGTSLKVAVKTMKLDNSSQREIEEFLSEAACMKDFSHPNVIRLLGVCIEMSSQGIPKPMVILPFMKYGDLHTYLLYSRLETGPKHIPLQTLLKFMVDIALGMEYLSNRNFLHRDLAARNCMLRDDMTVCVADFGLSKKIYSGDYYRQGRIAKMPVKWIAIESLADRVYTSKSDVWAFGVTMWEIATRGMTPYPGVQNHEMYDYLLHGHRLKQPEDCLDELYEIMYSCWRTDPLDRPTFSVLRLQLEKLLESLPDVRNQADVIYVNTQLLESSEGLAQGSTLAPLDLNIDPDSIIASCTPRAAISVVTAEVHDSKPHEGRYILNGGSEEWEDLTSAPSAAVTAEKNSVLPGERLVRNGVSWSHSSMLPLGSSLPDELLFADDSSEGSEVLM
Chain of UniProt Q9Y6M4 (whole entry, looked up): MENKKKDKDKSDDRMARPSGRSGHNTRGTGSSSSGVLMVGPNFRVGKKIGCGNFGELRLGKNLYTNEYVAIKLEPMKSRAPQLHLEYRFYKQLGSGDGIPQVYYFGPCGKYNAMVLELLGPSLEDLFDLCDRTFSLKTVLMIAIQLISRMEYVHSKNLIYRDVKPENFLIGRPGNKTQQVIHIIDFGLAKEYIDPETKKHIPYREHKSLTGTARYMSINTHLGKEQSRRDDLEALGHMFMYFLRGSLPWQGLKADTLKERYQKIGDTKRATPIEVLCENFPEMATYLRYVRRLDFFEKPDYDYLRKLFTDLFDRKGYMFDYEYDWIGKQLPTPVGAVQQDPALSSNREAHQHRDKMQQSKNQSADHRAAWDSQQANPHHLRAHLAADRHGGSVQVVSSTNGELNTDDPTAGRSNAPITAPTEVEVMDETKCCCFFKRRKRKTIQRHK

Sample 1 — read-out: cell-free assay; technique: competition with immobilised ligand; concentration: 1 µM
SMILES: CCC(=O)N[C@@H]1CC[C@H](C(=O)N(C)c2ccc(-c3nc4ccccc4o3)cc2)C1
| target | remaining binding [%] |
| --- | --- |
| CSNK1G3 (Homo sapiens, UniProt Q9Y6M4) | 100 |
| CAMK2D (Homo sapiens, UniProt Q13557) | 100 |
| EPHA7 (Homo sapiens, UniProt Q15375) | 100 |
| PIK3C2B (Homo sapiens, UniProt O00750) | 70 |
| KIT (Homo sapiens, UniProt P10721, D816H) | 100 |
| MAP2K2 (Homo sapiens, UniProt P36507) | 100 |

Sample 2 — read-out: enzyme activity; mode: inhibitor; concentration: 0.5 µM; relative to: control
SMILES: NC(=O)c1ccc(N(C(N)=O)c2c(F)cccc2F)nc1-c1ccc(F)cc1F
| target | remaining activity [%] |
| --- | --- |
| FGFR1 (Homo sapiens, UniProt P11362) | 99 |
| MST1R (Homo sapiens, UniProt Q04912) | 90.1 |
| CSNK1G2 (Homo sapiens, UniProt P78368) | 99.6 |
| GRK7 (Homo sapiens, UniProt Q8WTQ7) | 108 |
| MAPKAPK2 (Homo sapiens, UniProt P49137) | 98.9 |
| FRK (Homo sapiens, UniProt P42685) | 106 |
| MAPK3 (Homo sapiens, UniProt P27361) | 95.2 |
| ABL2 (Homo sapiens, UniProt P42684) | 100 |
| ACVR1B (Homo sapiens, UniProt P36896) | 113 |
| TBK1 (Homo sapiens, UniProt Q9UHD2) | 106 |
| MERTK (Homo sapiens, UniProt Q12866) | 114 |
| ULK3 (Homo sapiens, UniProt Q6PHR2) | 101 |
| WEE1 (Homo sapiens, UniProt P30291) | 101 |
| TEK (Homo sapiens, UniProt Q02763) | 96.7 |

Sample 3 — technique: RNA Bind-n-Seq; molecule type: RNA; medium: in vitro; concentration: 20 nM; notes: 6-mer, flanks averaged, single round; together with: 150 mM KCl; relative to: input library; reading: higher = stronger binding
Target: TAR DNA-binding protein 43, full length, His tag (TARDBP, Homo sapiens, UniProt Q13148, residues 1-414)
| Sequence | 6-mer enrichment (R) |
| --- | --- |
| GGAGGA | 3.76 |
| CCAACG | 0.763 |
| AGCCGG | 1.45 |
| AAGCAG | 0.909 |
| AUGGGU | 1.89 |
| ACUUUA | 0.587 |
| CCUCAC | 0.602 |
| UAAAUC | 0.584 |

Further values, each from its own experiment — technique: nitrocellulose filter binding; molecule type: RNA; medium: in vitro; concentration: 100 nM; relative to: round 9 selected pool; reading: higher = stronger binding
Target: SMN1, full length (human, UniProt Q16637, residues 1-294)
Chain of UniProt Q16637 (whole entry, looked up): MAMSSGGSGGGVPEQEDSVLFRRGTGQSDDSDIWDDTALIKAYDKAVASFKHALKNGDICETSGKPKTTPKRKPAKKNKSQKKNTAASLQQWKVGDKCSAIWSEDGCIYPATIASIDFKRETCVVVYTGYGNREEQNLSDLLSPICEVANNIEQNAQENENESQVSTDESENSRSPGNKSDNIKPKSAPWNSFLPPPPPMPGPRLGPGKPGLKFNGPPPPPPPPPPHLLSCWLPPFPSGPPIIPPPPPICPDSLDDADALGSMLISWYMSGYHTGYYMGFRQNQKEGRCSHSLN
Notes: whole RNA, constant flanks, single concentration, ends assumed
| Sequence | relative RNA binding |
| --- | --- |
| GGGCUCACCACGCACUGUGCGAUGCCAUGAGGUUGGGCGGCCUCACCACGGCAAGCU | 73 % of pool |
| GGGCUCACCACGCACUGUUGCGUAGAAAUUCGUUGGCUUGACCUCACCACGGCAAGCU | 14 % of pool |

Excerpt of the above (sample 2):
| target | remaining activity [%] |
| --- | --- |
| ABL2 (Homo sapiens, UniProt P42684) | 100 |
| CSNK1G2 (Homo sapiens, UniProt P78368) | 99.6 |
| MST1R (Homo sapiens, UniProt Q04912) | 90.1 |
| TBK1 (Homo sapiens, UniProt Q9UHD2) | 106 |
